Experimental data collected from several papers.
Cell line: LNCaP

C=C(NC(=O)c1csc(-c2ccc(NC(=O)CCCCCBr)cc2)n1)C(=O)NC(=C)C(=O)OC gave an EC50 of 11.4 µM (cell growth or viability).
With O=C(C[Se]C(=O)c1ccccc1Nc1cccc(C(F)(F)F)c1)Nc1cccc(C(F)(F)F)c1 the IC50 was 9.27 µM (cell growth or viability, MTS; 48 h).
The IC50 of CCCCCCC(=O)[O][Pt]([NH2])([NH2])([Cl])([Cl])[O]C(=O)CCC(C)C1CCC2C3CCC4CC(O)CCC4(C)C3CCC12C (centres unmarked) is reported as 1.2 µM (cell growth or viability, MTT; 72 h).
CNS(=O)(=O)Nc1nccc(Cc2c(C)c3ccc(Oc4ncccc4F)cc3oc2=O)c1F gave an IC50 of > 1 µM (cell viability; 7 days).
C=C(NC(=O)c1csc(-c2cccnc2)n1)C(=O)NC(=C)C(=O)OC gave an EC50 of 17.5 µM (cell growth or viability).
For O=C(C[Se]C(=O)c1cccnc1Nc1cccc(C(F)(F)F)c1)Nc1cccc(C(F)(F)F)c1, “late apoptotic/dead cells” read 43% (caspase 3/7; 10 µM, 48 h).
For O=C(O)C(Cc1c[nH]cn1)N1C(=O)c2ccc3c4ccc5c6c(ccc(c7ccc(c2c37)C1=O)c64)C(=O)N(C(Cc1c[nH]cn1)C(=O)O)C5=O (centres unmarked), the IC50 was > 100 µM (cell growth or viability, SRB; 72 h).
CC(CCC(=O)[O][Pt]([NH2])([NH2])([OH])([Cl])[Cl])C1CCC2C3CCC4CC(O)CCC4(C)C3CCC12C (centres unmarked) gave an IC50 of 9.3 µM (cell growth or viability, MTT; 72 h).
The IC50 of CC(C)c1ccc(N(C)c2ccc3c(c2)OCC[C@H]3CNc2cnccc2C(=O)O)cc1 is reported as 0.00465 µM (cell growth or viability, ATP luminescence; 7 days).
For Nc1nnc(-c2ccccc2O)cc1N1CC2CCC(C1)N2c1ccnc(C#CCCN2CCCCCC2)c1, the IC50 was 0.013 µM (cell growth or viability, ATP luminescence; 7 days).
The IC50 of CCOc1cncc(-c2ccc(NC(=O)C3(c4ccnc(NS(=O)(=O)C5CC5)n4)CCOCC3)nc2)n1 is reported as 2.81 µM (cell growth or viability, ATP luminescence; 72 h).
The GI50 of CCc1cc(N2C(=S)N(c3ccc(C#N)c(C(F)(F)F)c3)C(=O)C2(C)C)ccc1OCCN1CCN(CC(=O)Nc2cccc(NC3CCC(=O)NC3=O)c2)[C@H](C)C1 (some centres unmarked) is reported as 0.004 µM (androgen-stimulated proliferation; 168 h).
The IC50 of O=C(C[Se]C(=O)c1cc2ccccc2s1)Nc1cccc(C(F)(F)F)c1 is reported as 13.9 µM (cell growth or viability, MTS; 48 h).
With O=C1c2ccc3c4ccc5c6c(ccc(c7ccc(c2c37)C(=O)N1CCN1CCCCC1)c64)C(=O)N(CCN1CCCCC1)C5=O the IC50 was 87.1 µM (cell growth or viability, SRB; 72 h).

Repeated from above:
With O=C(C[Se]C(=O)c1ccccc1Nc1cccc(C(F)(F)F)c1)Nc1cccc(C(F)(F)F)c1 the IC50 was 9.27 µM (cell growth or viability, MTS; 48 h).
